Published values gathered from unrelated publications.
Each numbered part is a random draw from the data of one study; scales do not carry over between parts. Changes are numbered by the printed parent chain.
Sequence of UniProt Q9C0B0 (30-357, looked up): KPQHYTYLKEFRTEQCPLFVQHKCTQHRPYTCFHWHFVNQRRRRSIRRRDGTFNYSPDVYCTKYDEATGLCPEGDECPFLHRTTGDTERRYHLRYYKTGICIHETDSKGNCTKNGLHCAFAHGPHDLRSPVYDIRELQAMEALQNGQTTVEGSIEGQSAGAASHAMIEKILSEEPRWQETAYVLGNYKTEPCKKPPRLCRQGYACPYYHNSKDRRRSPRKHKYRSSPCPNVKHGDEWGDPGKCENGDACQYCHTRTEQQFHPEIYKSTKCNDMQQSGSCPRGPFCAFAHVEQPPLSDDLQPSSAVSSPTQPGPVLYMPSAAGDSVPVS

Sample 1
Target: CCNB2, cyclin fold, Cln2 fusion (human)
Technique: yeast growth competition, sequencing
Medium: yeast
Notes: weak parent motif
Relative to: not given
Reading: higher = stronger binding
Endpoint: normalised enrichment score
Starting sequence: PKN2 docking peptide (human); VSAVRKLDFSDTM
VSAVRKLDFNDTM [S10N]: 0.425
VSAVDKLDFSDTM [R5D]: -0.482
VSAVRKLDFSITM [D11I]: -0.0282
VSAVRKLSFSDTM [D8S]: 0.656
VDAVRKLDFSDTM [S2D]: 0.507
VSAVLKLDFSDTM [R5L]: 0.0223
VSAVRKLDHSDTM [F9H]: 0.253
VSAVRKLDPSDTM [F9P]: 0.159
VSAVRKLDFMDTM [S10M]: 0.215
VSMVRKLDFSDTM [A3M]: 1.05
VSAVRKLDFSNTM [D11N]: 0.449
VSAVTKLDFSDTM [R5T]: -0.188
VSAVRKLDQSDTM [F9Q]: -0.0973
VSAVRKLDFGDTM [S10G]: 0.599
VSAVRKLDISDTM [F9I]: 0.505
VSAVRTLDFSDTM [K6T]: 0.175
VSYVRKLDFSDTM [A3Y]: 0.271
VSAVRKLEFSDTM [D8E]: 0.245
VSAVRKYDFSDTM [L7Y]: 0.196
VRAVRKLDFSDTM [S2R]: 0.428
VSAVRKLDFSDVM [T12V]: 0.72
VSAMRKLDFSDTM [V4M]: 0.318
VSAVRVLDFSDTM [K6V]: -0.152
VSKVRKLDFSDTM [A3K]: 0.333
VSAVRKLYFSDTM [D8Y]: 0.262

Sample 2
Target: Histone acetyltransferase KAT6A, winged helix 1, GST fusion (KAT6A, Homo sapiens, UniProt Q92794, residues 1-85)
Technique: protein binding microarray
Molecule type: double-stranded DNA, one strand shown
Medium: in vitro
Tested at: not given
Notes: 8-mer, flanks averaged, mean of 2 arrays, mostly near background
Relative to: not given
Reading: higher = stronger binding
Endpoint: E-score
Target sequence (chain): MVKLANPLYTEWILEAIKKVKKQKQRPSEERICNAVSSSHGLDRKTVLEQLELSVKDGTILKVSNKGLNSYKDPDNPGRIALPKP
ACATGGTC: -0.194
AAGTACAA: -0.0793
AAAGCGCT: 0.338
ACACTAGA: -0.0748
AGTAAGGC: 0.0672
AGACCGGA: -0.0035
AACGTCGA: -0.166
GTCTGCCA: 0.0113
GAGGGCCA: -0.165
GAAACTGC: 0.162
CTTGCGTA: 0.0691
CACTTGAG: -0.256
GGTGGGCA: -0.165
AATGGGTC: -0.134
AGTGGTTG: -0.279
ACAAGTGA: -0.155
GAATCATA: -0.146
ATTATCTC: -0.0672
AACTCTGT: -0.0967
AAATAATC: -0.133
GGTGATAA: -0.00311
CGAGGGAA: -0.08
CCACACTC: -0.00275
ACCATGCG: 0.211
CGCGATGC: 0.295

Sample 3
Target: RNA binding protein fox-1 homolog 2, RRM domain, GST-SBP tag (RBFOX2, Homo sapiens, UniProt O43251-10, residues 100-194)
Technique: RNA Bind-n-Seq
Molecule type: RNA
Medium: in vitro
Tested at: 365 nM
Notes: natural RNA segment, single round, ends assumed
Relative to: no-protein control
Reading: higher = stronger binding
Endpoint: RBNS enrichment (R)
Constant ends, left off below: GGGAGUUCUACAGUCCGACGAUC … UGGAAUUCUCGGGUGCCAA
Target sequence (chain): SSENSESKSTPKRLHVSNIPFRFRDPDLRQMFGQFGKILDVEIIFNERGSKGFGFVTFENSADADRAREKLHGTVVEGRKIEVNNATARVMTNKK
AGCUGGGUAGCCUCUCUGAGCUGGUUUCCUGCCCCAAAGGCUGGCUUCCACCAUCCAGGUGCACCACUGAAGUGAGGACACACCGGAGCCAGGCGCCUGCUCAUGUUGAA: 0.175
UUGAGAAUCACUGUGGGCGUCCAUUCUUAUCAACUAAAUCUCCACAGGGUUUUUGUGCUGGUGUGGAUUAGUUUAACUCUUGUAUUCAACCGUUAGUGCUACCACCUUCU: 0.506
UUGAAAGAUUACAAACAGCUGUUUCUCAAACCCUCUCAAUCCAUCAUAAUAAAAUACAUAAUAUUGUAUCUUUAGAAGUAAAUUAUUACAUUGUCUAUUUUCUUAAAAGU: 0.67
UUCAUUGAGUGAAAUAUUUUAAGCCAAAAAAAAAUUCCCUUUUUAAAAAAGGGGGUUUAAAUACUGUUGGCAUUUUUAUGGUUCCUUUAAAUGCCCUAGCUAUUCCCAGA: 0.661
GCACCCUGCGCACCCAGGAGGGCCUUUUAUGUUUUGAUUCAUAUAUAAACACGAUGUUAUUUUUCUUUACAAAAGCAAAAAAAUAAAAACCGUACCAACCUUUGACUUGU: 0.711
AUUCCCUUUGACUUCAGCUGCCUGAAACAGCCAUGUCCAAGUUCUUCACCUCUAUCCAAAGAACUUGAUUUGCAUGGAUUUUGGAUAAAUCAUUUCAGUAUCAUCUCCAU: 1.42
CCCAGCCUGUAAUUCUAAGUUCAACAAAACAGUUGUCAACAAAAGUGACUGAGGCUUCCACCAGAGUGCCAGGGCUCUGUGCAGACUCAGAAUCCCUGUUCCCUAUGUCA: 0.742
UCAUAUCUGGUUUUGUUUUUAUUUUUUUAUCAUGAACAUUAAAUGUGAUGAUGAUUUCUUUUCCCUGCACACAUCUUUCCGGUGCAAUAUCUAUCAAUUGUGAAUCUGGC: 0.638

Mixed results
GGGAGUUCUACAGUCCGACGAUCUAAGAAUUGGAAGAAUUGUGCCGGAGGCAGCCGUCAAAAAGCCGAAGCAGUUUGGAAGAGCCGUUACAAAUAUCAAGAGCCAGGUGGCUAAAAGGUGGAGCUACCGGUCAUUGAAGCUCACAACAGAGGAUUGAGCAUCA
bound/input enrichment (RING finger protein unkempt homolog, zinc fingers 1-6, SBP tag (UNK, Homo sapiens, UniProt Q9C0B0, residues 30-357); RNA Bind-n-Seq; RNA, in vitro; 100 nM, RNA with constant flanks, ends assumed; relative to: input RNA pool, higher = stronger binding): 0.454 ratio

For quick reference, copied from above (sample 1):
VSAVRKYDFSDTM [L7Y]: 0.196
VSAVLKLDFSDTM [R5L]: 0.0223
VSKVRKLDFSDTM [A3K]: 0.333
VSAVRKLDFSNTM [D11N]: 0.449
VSAVRKLDHSDTM [F9H]: 0.253
VSAVRKLDFMDTM [S10M]: 0.215
VSAVRKLDFSITM [D11I]: -0.0282
VSAVRKLSFSDTM [D8S]: 0.656
VSAVRKLEFSDTM [D8E]: 0.245
